Measurements gathered from unrelated publications.
Values joined by “and” are separate records of one study, mostly repeats; a detail may differ. Numbers after ± are the reported error.

Compound	test	system	setting	scale	measurement	value
C[C@@H](O)[C@H]1C(=O)N2C(C(=O)O)=C(S[C@@H]3CN[C@H](C(=O)N(C)C)C3)[C@H](C)[C@H]12		BALB/c mouse, male, plasma	intraperitoneal, 100 mg/kg, 2 h		plasma concentration	1720 ng/mL
Cc1cc([C@H]2C[C@H]3[C@@H](CF)SC(N)=N[C@@]3(c3ccc(F)cc3F)CO2)on1		male 129/SVE wild-type mouse, plasma	subcutaneous, 100 mg/kg, 5 h		plasma concentration	0.307 µM
O=C1CCC(N2Cc3cc(CO)c(F)cc3C2=O)C(=O)N1 (centres unmarked)		CD-1 mouse, male	oral, 10 mg/kg parent drug, 0.17 h		plasma concentration	13.2 ± 9 ng/mL
CSc1cc(Oc2ccnc3[nH]c(=O)cnc23)ccc1NC(=O)Nc1cc(C(C)(C)C)nn1-c1ccccc1		NSG mouse, female, plasma	oral, 20 mg/kg, 1 h after last dose		plasma concentration	28 µM and 49.8 µM and 81.1 µM and 38.8 µM
Cc1cc([C@H]2C[C@H]3[C@@H](C)SC(N)=N[C@@]3(c3ccc(F)cc3F)CO2)on1		male 129/SVE mouse, plasma	subcutaneous, 50 mg/kg, 9 h		plasma concentration	0.103 µM
C[C@]12C[C@@]34C=CC(=O)[C@@](C)(CCC(=O)Nc5c(O)ccc(C(=O)S[C@H]6CC(=O)[C@@](C)(CCC(=O)Nc7c(O)ccc(C(=O)O)c7O)[C@@H]7[C@@H]8C[C@@H]9C[C@]67C[C@]9(C)O8)c5O)[C@@H]3[C@H](C[C@@H]1C4)O2		C57BL/6 mouse, plasma	intravenous, 10 mg/kg, 1 h	baseline: 1 h level	plasma concentration ratio	3.3
CCCCCN1C[C@H](O)[C@@H](O)[C@H](O)[C@@H]1CO	LC-MS/MS	mouse Hexb-/- total, plasma	300 mg/kg/day, arithmetic mean		plasma concentration	3580 ng/mL
COC(=O)/C=C/c1cc(C(=O)NCc2ccc(C)cc2)cc(-c2ccc3ncnn3c2)c1		mouse, plasma	37 °C		plasma stability	unstable
